Experimental data of several laboratories.
Lines come from different studies, so protocols differ. ± marks the error that the study gave.
lasR: Transcriptional activator protein LasR (lasR, Pseudomonas aeruginosa, UniProt P25084)
Sequence of UniProt P25084 (whole entry, looked up): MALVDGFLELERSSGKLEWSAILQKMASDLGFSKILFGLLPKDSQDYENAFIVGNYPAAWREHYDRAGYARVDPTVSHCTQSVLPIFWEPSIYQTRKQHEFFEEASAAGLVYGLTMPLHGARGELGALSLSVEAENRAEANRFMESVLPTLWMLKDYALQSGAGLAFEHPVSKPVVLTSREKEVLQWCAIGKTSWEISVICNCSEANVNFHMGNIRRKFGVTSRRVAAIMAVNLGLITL
T1: aptamer DNA A5T; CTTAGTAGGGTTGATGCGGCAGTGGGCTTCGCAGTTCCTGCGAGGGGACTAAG
T2: aptamer DNA aminoglycoside aptamer; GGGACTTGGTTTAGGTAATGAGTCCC
T3: riboswitch RNA SAM-I metF-H2 (Thermoanaerobacter tengcongensis); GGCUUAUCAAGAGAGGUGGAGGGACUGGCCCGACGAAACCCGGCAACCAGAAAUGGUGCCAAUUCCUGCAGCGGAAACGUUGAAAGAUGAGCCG
T4: riboswitch RNA U11G (Bacillus); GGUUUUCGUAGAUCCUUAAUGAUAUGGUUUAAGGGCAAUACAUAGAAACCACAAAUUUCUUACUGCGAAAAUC
T5: aptamer DNA vancomycin aptamer variant; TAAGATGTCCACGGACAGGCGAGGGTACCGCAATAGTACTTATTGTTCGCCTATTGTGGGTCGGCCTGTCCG
T6: lysine riboswitch RNA (Thermotoga maritima); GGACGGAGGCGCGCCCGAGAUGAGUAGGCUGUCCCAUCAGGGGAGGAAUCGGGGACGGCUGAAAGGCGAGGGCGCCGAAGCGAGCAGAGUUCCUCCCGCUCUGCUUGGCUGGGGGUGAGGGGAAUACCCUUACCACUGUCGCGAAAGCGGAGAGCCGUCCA
T7: lysine riboswitch RNA, 2-aminopurine at 17 (Bacillus subtilis); chain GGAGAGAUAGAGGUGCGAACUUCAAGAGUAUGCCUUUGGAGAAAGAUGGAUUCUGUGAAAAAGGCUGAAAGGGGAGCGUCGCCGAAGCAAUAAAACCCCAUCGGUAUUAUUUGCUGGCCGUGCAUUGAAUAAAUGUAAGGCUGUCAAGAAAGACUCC; chain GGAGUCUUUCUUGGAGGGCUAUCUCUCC
T8: riboswitch RNA (Mesoplasma florum); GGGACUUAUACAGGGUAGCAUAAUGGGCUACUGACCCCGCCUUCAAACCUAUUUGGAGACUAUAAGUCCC
Sequence of UniProt Q6NT16 (whole entry, unmodified, looked up): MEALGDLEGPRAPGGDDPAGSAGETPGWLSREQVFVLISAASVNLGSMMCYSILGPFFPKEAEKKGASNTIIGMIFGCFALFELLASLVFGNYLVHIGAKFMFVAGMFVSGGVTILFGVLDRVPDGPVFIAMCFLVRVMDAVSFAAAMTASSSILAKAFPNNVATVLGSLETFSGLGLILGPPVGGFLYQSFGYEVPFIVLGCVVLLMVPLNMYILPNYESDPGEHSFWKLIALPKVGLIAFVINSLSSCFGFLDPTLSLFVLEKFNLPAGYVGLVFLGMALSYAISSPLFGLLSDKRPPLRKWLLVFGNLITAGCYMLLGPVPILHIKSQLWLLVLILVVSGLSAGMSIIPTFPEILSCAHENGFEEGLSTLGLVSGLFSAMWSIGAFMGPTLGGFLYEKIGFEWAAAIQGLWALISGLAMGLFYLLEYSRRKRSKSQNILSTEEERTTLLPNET
Sequence of UniProt P51575 (whole entry, unmodified, looked up): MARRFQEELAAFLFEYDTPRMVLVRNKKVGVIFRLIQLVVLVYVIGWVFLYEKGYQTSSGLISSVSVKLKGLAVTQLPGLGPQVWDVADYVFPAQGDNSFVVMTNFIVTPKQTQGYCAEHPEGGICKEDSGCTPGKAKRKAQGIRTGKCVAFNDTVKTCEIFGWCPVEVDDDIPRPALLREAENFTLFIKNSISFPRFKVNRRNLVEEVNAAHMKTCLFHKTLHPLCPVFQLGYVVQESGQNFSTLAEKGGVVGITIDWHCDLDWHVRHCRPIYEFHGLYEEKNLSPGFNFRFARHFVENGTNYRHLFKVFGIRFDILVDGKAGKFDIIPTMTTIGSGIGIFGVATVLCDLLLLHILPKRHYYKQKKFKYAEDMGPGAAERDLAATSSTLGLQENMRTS

SMILES | target or system | assay | system | setting | scale | measurement | result
C[n+]1ccc(C=C2Sc3ccccc3N2CC(=O)NCCOCCOCCOCCNC(=O)CCCC[C@@H]2SC[C@@H]3NC(=O)N[C@@H]32)c2ccccc21 | T1, aptamer DNA A5T | X-ray crystallography | – | – | – | binding | binds
CNCCOC12CC3(C)CC(C)(CC(Cn4ncc(-c5ccc(N6CCc7cccc(C(=O)Nc8nc9ccccc9s8)c7C6)nc5C(=O)O)c4C)(C3)C1)C2 | – | – | anaesthetised male beagle dogs | intravenous bolus, 0.03 mg/kg, 60 min | reference: baseline | systemic vascular resistance change | 19%
COc1ccccc1C(=O)C#Cc1ccc(F)c(F)c1 | lasR | receptor binding | – | concentration not given, 1.5 h, together with: OdDHL at 1:1 ratio | reference: control | binding | 60%
NC[C@H]1O[C@H](O[C@H]2[C@H](O)[C@@H](O[C@H]3O[C@H](CO)[C@@H](O)[C@H](N)[C@H]3O)[C@H](N)C[C@@H]2N)[C@H](O)[C@@H](O)[C@@H]1O | T2, aptamer DNA aminoglycoside aptamer | chronoamperometry | – | apparent, aptamer electrode | – | binding | binds
CC(C)C[C@H](NC(=O)C[C@H](O)[C@H](CC(C)C)NC(=O)[C@H](Cc1c[nH]cn1)NC(=O)CNC(=O)[C@@H](NC(=O)[C@H](C)NC(=O)[C@H](Cc1c[nH]c2ccccc12)NC(=O)[C@H](CCC(N)=O)NC(=O)[C@@H](Cc1ccccc1)NC(=O)COCCOCCNC(=O)CCC(C(=O)O)N1CCN(CC(=O)O)CCN(CC(=O)O)CCN(CC(=O)O)CC1)C(C)C)C(N)=O (stereo partly drawn) [lutetium-177 labelled] | – | – | female BALB/c nu/nu mice, skin | intravenous, 100 pmol, 4 h, together with: PA 300 µg | – | tissue uptake | 0.15 ± 0.06 %ID/g
Cn1cc(-c2ccc(-c3cncc(Cl)c3N3CCC4(CCNC4=O)CC3)cc2)cn1 | COLO 205 | gene expression, microarray, measured: SPIB mRNA | – | concentration not given, 2 h | reference: untreated cells | log2 fold change | -3.32
COc1cc(C#CC(=O)CC(C)C)ccc1O | lasR | receptor binding | – | concentration not given, 1.5 h, together with: OdDHL at 1:1 ratio | reference: control | binding | 84%
C[S+](CC[C@H](N)C(=O)O)C[C@H]1O[C@@H](n2cnc3c(N)ncnc32)[C@H](O)[C@@H]1O (stereo partly drawn) | T3, riboswitch RNA SAM-I metF-H2 (Thermoanaerobacter tengcongensis) | ITC | – | apparent | – | binding | binds
COc1cc(C#CC(=O)c2ccccc2OC)ccc1O | lasR | receptor binding | – | concentration not given, 1.5 h, together with: OdDHL at 1:1 ratio | reference: control | binding | 77%
CN1CCC(c2cc(-c3ccncc3)c(-c3ccc(F)cc3)[nH]2)CC1 | Plasmodium falciparum | nanoluciferase | 3D7 Hyp1-Nluc | 20 µM, 72 h | reference: DMSO | parasite growth | 2.89%
Nc1nc2c(ncn2[C@H]2C[C@H](O)[C@@H](CO)O2)c(=O)[nH]1 | T4, riboswitch RNA U11G (Bacillus) | ITC | – | KCl 50 mM | – | binding | no binding
CN[C@H](CC(C)C)C(=O)N[C@H]1C(=O)N[C@@H](CC(N)=O)C(=O)N[C@H]2C(=O)N[C@H]3C(=O)N[C@H](C(=O)N[C@H](C(=O)O)c4cc(O)cc(O)c4-c4cc3ccc4O)[C@H](O)c3ccc(c(Cl)c3)Oc3cc2cc(c3O[C@@H]2O[C@H](CO)[C@@H](O)[C@H](O)[C@H]2O[C@H]2C[C@](C)(N)[C@H](O)[C@H](C)O2)Oc2ccc(cc2Cl)[C@H]1O | T5, aptamer DNA vancomycin aptamer variant | competitor, fluorescence | – | pH 7.4, MgCl2 10 mM | – | binding | binds
Nc1ncnc2c1ncn2[C@@H]1O[C@H](COP(=O)(O)CP(=O)(O)OP(=O)(O)O)[C@@H](O)[C@H]1O | P2X purinoceptor 1 (P2RX1, Homo sapiens, UniProt P51575, K136W) | calcium influx | – | 3.16 nM | reference: ionomycin response | calcium influx | 0%
NCCCC[C@H](N)C(=O)NCC(=O)O | T6, lysine riboswitch RNA (Thermotoga maritima) | X-ray crystallography | – | – | – | binding | binds
Cc1c(-c2ccc(N3CCc4cccc(C(=O)Nc5nc6ccccc6s5)c4C3)nc2C(=O)O)cnn1CC12CC3(C)CC(C)(C1)CC(OCCNCC[C@H](O)CO)(C3)C2 | – | – | beagle dog, anaesthetised | intravenous infusion, 0.1 mg/kg/min, 150 min | reference: baseline | mean arterial pressure change | -13 mmHg
NC(=O)C[C@H](N)C(=O)O | T7, lysine riboswitch RNA, 2-aminopurine at 17 (Bacillus subtilis) | 2-aminopurine fluorescence titration | – | pH 8.0, no fluorescence change | – | binding | no binding
O=C(C#Cc1ccc(F)c(F)c1)c1cccc(Cl)c1 | lasR | receptor binding | – | concentration not given, 1.5 h, together with: OdDHL at 1:1 ratio | reference: control | binding | 61%
C[C@H](N)C(=O)O | T7, lysine riboswitch RNA, 2-aminopurine at 17 (Bacillus subtilis) | 2-aminopurine fluorescence titration | – | pH 8.0, no fluorescence change | – | binding | no binding
Nc1nc2c(ncn2[C@H]2C[C@H](O)[C@@H](COP(=O)(O)O)O2)c(=O)[nH]1 | T8, riboswitch RNA (Mesoplasma florum) | NMR | – | – | – | binding | no binding
NCCCNCCCCNCCCN | MFS-type transporter SLC18B1 (SLC18B1, Homo sapiens, UniProt Q6NT16, W384A) | binder | – | – | – | Kd | 181 µM
N[C@@H](CCCCNC(=O)CC[C@H](N)C(=O)O)C(=O)O | T7, lysine riboswitch RNA, 2-aminopurine at 17 (Bacillus subtilis) | 2-aminopurine fluorescence titration | – | pH 8.0 | – | binding | no binding

For quick reference, copied from above:
SMILES | target or system | assay | system | setting | scale | measurement | result
CC(C)C[C@H](NC(=O)C[C@H](O)[C@H](CC(C)C)NC(=O)[C@H](Cc1c[nH]cn1)NC(=O)CNC(=O)[C@@H](NC(=O)[C@H](C)NC(=O)[C@H](Cc1c[nH]c2ccccc12)NC(=O)[C@H](CCC(N)=O)NC(=O)[C@@H](Cc1ccccc1)NC(=O)COCCOCCNC(=O)CCC(C(=O)O)N1CCN(CC(=O)O)CCN(CC(=O)O)CCN(CC(=O)O)CC1)C(C)C)C(N)=O (stereo partly drawn) [lutetium-177 labelled] | – | – | female BALB/c nu/nu mice, skin | intravenous, 100 pmol, 4 h, together with: PA 300 µg | – | tissue uptake | 0.15 ± 0.06 %ID/g
CNCCOC12CC3(C)CC(C)(CC(Cn4ncc(-c5ccc(N6CCc7cccc(C(=O)Nc8nc9ccccc9s8)c7C6)nc5C(=O)O)c4C)(C3)C1)C2 | – | – | anaesthetised male beagle dogs | intravenous bolus, 0.03 mg/kg, 60 min | reference: baseline | systemic vascular resistance change | 19%
C[C@H](N)C(=O)O | T7, lysine riboswitch RNA, 2-aminopurine at 17 (Bacillus subtilis) | 2-aminopurine fluorescence titration | – | pH 8.0, no fluorescence change | – | binding | no binding
